Measured values collected from several papers.
Parts stem from different laboratories: compare values within a part only. Substitutions count along the parent as printed.

Study 1
Target: CEP164, C-terminal peptide (human)
Technique: DHFR complementation, deep sequencing
Medium: yeast
Notes: single substitutions, model-inferred values
Relative to: wild type
Direction: higher = weaker binding
Parent: PDZK1, PDZ domain 2 (human); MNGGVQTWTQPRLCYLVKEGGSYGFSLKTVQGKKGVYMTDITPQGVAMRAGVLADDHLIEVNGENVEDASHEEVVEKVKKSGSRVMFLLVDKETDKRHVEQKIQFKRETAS; partner HNRVKVYRF
Substitution	binding free energy change [kcal/mol]
M38L	0.176
T9R	-0.0998
M1I	-0.028
K28E	0.00718
T42G	0.853
S111R	-0.0765
I59W	0.551
K18H	0.681

Study 2
Target: Prothrombin, mature alpha-thrombin (F2, Homo sapiens, UniProt P00734)
Technique: aptamer microarray, sandwich
Molecule type: DNA with 2'F-ANA
Medium: in vitro
Concentration: 200 nM
Notes: whole 15-mer aptamer, many near background
With: Cy3 exosite-II aptamer, 400 nM
Direction: higher = stronger binding
Oligonucleotide: GGTTGGTGTGGTTGG
Modification	mean fluorescence intensity
2'F-ANA at 2 4 5 6 10 13 14 15	48 a.u.
2'F-ANA at 1 8 12 13 14	93.7 a.u.
2'F-ANA at 2 4 5 8 10 13 14	43.1 a.u.
2'F-ANA at 1 2 3 6 7 9 11	157 a.u.
2'F-ANA at 2 3 4 6 8 9 10 11 12 13	209 a.u.
2'F-ANA at 1 2 3 4 5 6 10 11	66.8 a.u.
2'F-ANA at 1 3 5 8 9 11 12 14	85.7 a.u.
2'F-ANA at 1 2 9 10 14	136 a.u.

Further values, each from its own experiment
P1: PafA, mature enzyme, eGFP fusion (Elizabethkingia meningoseptica, UniProt Q9KJX5); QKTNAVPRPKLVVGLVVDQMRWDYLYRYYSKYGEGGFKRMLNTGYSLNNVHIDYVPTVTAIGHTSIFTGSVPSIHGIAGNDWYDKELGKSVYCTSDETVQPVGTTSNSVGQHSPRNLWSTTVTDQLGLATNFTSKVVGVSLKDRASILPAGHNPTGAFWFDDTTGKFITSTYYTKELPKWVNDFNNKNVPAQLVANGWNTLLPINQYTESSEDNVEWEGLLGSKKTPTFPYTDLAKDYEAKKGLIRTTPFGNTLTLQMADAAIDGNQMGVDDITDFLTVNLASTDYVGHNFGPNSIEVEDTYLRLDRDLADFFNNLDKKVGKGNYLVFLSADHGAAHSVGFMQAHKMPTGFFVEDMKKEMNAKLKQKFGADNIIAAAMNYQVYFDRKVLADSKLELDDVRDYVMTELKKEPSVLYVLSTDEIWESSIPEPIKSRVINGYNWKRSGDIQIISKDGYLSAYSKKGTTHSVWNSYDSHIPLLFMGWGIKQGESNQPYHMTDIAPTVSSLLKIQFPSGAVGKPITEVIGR
Substance	target	assay	system	setting	how to read	measurement	value
P1 I66V	tungstate, free oxyanion	microfluidic competitive inhibition	in vitro, cell-free expressed	not given, derived from inhibition constants, unchanged parent 2230 nM	lower = stronger binding	oxyanion analog dissociation constant	1.71 µM
PhoQ, residues 284 288 289 292 302 303 SMMNNA	PhoP, residues 12 14 15 18 19 VHSCL (Escherichia coli, UniProt P23836)	Sort-seq, item: YFP reporter	E. coli	PhoQ-PhoP variant library, with: 10 µM Mg2+	relative to: high Mg2+ state, higher = stronger signaling	fold induction	13.1

For quick reference, copied from above (study 1):
Substitution	binding free energy change [kcal/mol]
K28E	0.00718
